Measurements gathered from unrelated publications.
Each line is one published result; not all experiments were run side by side. Numbers after ± are the reported error.

`CON(C(=O)c1cn(C)nc1C(F)F)C(C)Cc1c(Cl)cc(Cl)cc1Cl` (stereo not drawn) has an EC50 of 0.862 µg/mL (Podosphaera fuliginea; Cucumis sativus; in vivo cucumber powdery mildew).
The EC50 of `CCC1(CC)CC(=O)N(C2c3cc(C(=O)NC4c5ccccc5CC4O)ccc3OC2(C)COC)C(=N)N1` (stereo not drawn) is reported as 0.5 nM (Plasmodium falciparum; parasite growth; CAM3 REV).
`COc1cc(NC(C(=O)N2CCc3ccc(OC(F)(F)F)cc32)c2ccc(Cl)cc2)cc(OCCCC(=O)O)c1` (stereo not drawn) gave an EC50 of > 10000 nM (Zika virus; viral replication; Huh-7.5.1, nanoluciferase reporter; 48 h).
`O=C(c1ccc(-c2ccc3ncnc(Nc4ccc(OCc5cccc(F)c5)c(Cl)c4)c3c2)cc1)N1CCCCC1` has an EC50 of > 50000 nM (Trypanosoma cruzi; intracellular amastigote growth, β-galactosidase CPRG; 3T3, Tulahuen, β-galactosidase-expressing; 96 h).
For `O=C(NNc1ccc(Cl)cc1)c1nnc(CC23CC4CC(CC(C4)C2)C3)o1`, the EC50 was > 25 µg/mL (Rhizoctonia solani; microbial growth).
`CCOC(=O)c1cc(O)c(=O)c(O)cc1C` has an EC50 of 4300 nM (Hepatitis B virus; viral replication, inhibitor, qPCR; HepDES19).
`CN1CCN(S(=O)(=O)c2ccc(-c3ccc4ncnc(Nc5ccc(OCc6ccccc6)cc5)c4c3)cc2)CC1` has an EC50 of 9900 nM (Trypanosoma cruzi; intracellular amastigote growth, β-galactosidase CPRG; 3T3, Tulahuen, β-galactosidase-expressing; 96 h).
The EC50 of `COc1ccccc1-c1n[nH]c2nc(N[C@H]3CC[C@H](NS(=O)(=O)CC(C)C)CC3)ncc12` is reported as 0.89 ± 0.02 nM (Leishmania donovani; cell growth; promastigotes, LdBOB CYC9 overexpressing).
The EC50 of `COC(=O)c1c(CCl)cc(O)c(=O)c(O)c1C(=O)OC` is reported as 400 nM (Hepatitis B virus; viral replication, inhibitor, qPCR; HepDES19).
`Fc1cccc(COc2ccc(Nc3ncnc4ccc(-c5ccc(N6CCNCC6)cc5)cc34)cc2Cl)c1` has an EC50 of 1400 nM (Trypanosoma cruzi; intracellular amastigote growth, β-galactosidase CPRG; 3T3, Tulahuen, β-galactosidase-expressing; 96 h).
With `O=C(CCN(CCC(=O)N[C@@H](Cc1c[nH]c2ccccc12)C(=O)O)C(=O)CCN(CCC(=O)N(CCC(=O)N[C@@H](Cc1c[nH]c2ccccc12)C(=O)O)CCC(=O)N[C@@H](Cc1c[nH]c2ccccc12)C(=O)O)C(=O)c1cc(C(=O)N(CCC(=O)N(CCC(=O)N[C@@H](Cc2c[nH]c3ccccc23)C(=O)O)CCC(=O)N[C@@H](Cc2c[nH]c3ccccc23)C(=O)O)CCC(=O)N(CCC(=O)N[C@@H](Cc2c[nH]c3ccccc23)C(=O)O)CCC(=O)N[C@@H](Cc2c[nH]c3ccccc23)C(=O)O)cc(C(=O)N(CCC(=O)N(CCC(=O)N[C@@H](Cc2c[nH]c3ccccc23)C(=O)O)CCC(=O)N[C@@H](Cc2c[nH]c3ccccc23)C(=O)O)CCC(=O)N(CCC(=O)N[C@@H](Cc2c[nH]c3ccccc23)C(=O)O)CCC(=O)N[C@@H](Cc2c[nH]c3ccccc23)C(=O)O)c1)N[C@@H](Cc1c[nH]c2ccccc12)C(=O)O` the EC50 was 8800 ± 50 nM (respiratory syncytial virus; viral replication; HeLa cells, Long).
`COC(=O)c1cc(O)c(=O)c(O)cc1C` has an EC50 of 1100 nM (Hepatitis B virus; viral replication, inhibitor, qPCR; HepDES19).
The EC50 of `O=C(CC12CC3CC(CC(C3)C1)C2)NCCOCC(=O)NC1CCN(S(=O)(=O)c2cc(C(=O)Nc3cc(F)c(F)c(F)c3)ccc2F)CC1` is reported as 580 ± 110 nM (Hepatitis B virus; viral replication, item: intracellular HBV DNA; HepG2.2.15; 6 days).
`Cc1cc(O)c(=O)c(O)cc1C(=O)c1ccccc1` gave an EC50 of 900 nM (Hepatitis B virus; viral replication, inhibitor, qPCR; HepDES19).
The EC50 of `COc1ccc(Nc2ncnc3ccc(-c4ccc(S(=O)(=O)N5CCN(C)CC5)cc4)cc23)cc1Cl` is reported as > 50000 nM (Trypanosoma cruzi; intracellular amastigote growth, β-galactosidase CPRG; 3T3, Tulahuen, β-galactosidase-expressing; 96 h).
`Nc1nc(Nc2ccc(Cl)c(Cl)c2)nn1S(=O)(=O)c1ccc2ccccc2c1` has an EC50 of 4300 nM (dengue virus; viral replication; Huh-7, New Guinea C).
`Fc1cccc(COc2ccc(Nc3ncnc4ccc(-c5ccc(CN6CCOCC6)cc5)cc34)cc2Cl)c1` has an EC50 of 600 nM (Trypanosoma cruzi; intracellular amastigote growth, β-galactosidase CPRG; 3T3, Tulahuen, β-galactosidase-expressing; 96 h).
`COC(=O)c1c(C)cc(O)c(=O)c(O)c1Br` gave an EC50 of 7800 nM (Hepatitis B virus; viral replication, inhibitor, qPCR; HepDES19).
With `CN1CCN(S(=O)(=O)c2ccc(-c3ccc4ncnc(Nc5ccccc5)c4c3)cc2)CC1` the EC50 was > 50000 nM (Trypanosoma cruzi; intracellular amastigote growth, β-galactosidase CPRG; 3T3, Tulahuen, β-galactosidase-expressing; 96 h).
For `CC(=O)c1c(C)cc(O)c(=O)c(O)c1Br`, the EC50 was 3000 nM (Hepatitis B virus; viral replication, inhibitor, qPCR; HepDES19).
`COc1cc(N[C@H](C(=O)c2c[nH]c3ccc(OC(F)(F)F)cc23)c2ccc(Cl)cc2OC)cc(S(C)(=O)=O)c1` gave an EC50 of 6880 nM (Zika virus; viral replication; Huh-7.5.1, nanoluciferase reporter; 48 h).
For `COCc1cc(O)c(=O)c(O)c(C(=O)OC)c1C(=O)OC`, the EC50 was 15000 nM (Hepatitis B virus; viral replication, inhibitor, qPCR; HepDES19).
For `CC(=O)CCC1C(=O)NC(C(C)C)C(=O)NC(Cc2cc(O)cc(F)c2)C(=O)N2CCCC(N2)C(=O)OC(C(C)=CC=CC(=O)N2CCCCO2)CC=CC=CC(O)C(C)C1O` (stereo not drawn), the EC50 was 15 ± 2 nM (Hepatitis C virus; viral replication; Huh7, Con1 replicon; 10% human serum).
The EC50 of `CCc1nn(C)c2nc(-c3ccc(C(=O)O)cc3)nc(NCc3ccccc3)c12` is reported as 860 nM (Cryptosporidium parvum; parasite growth, immunofluorescence microscopy; HCT-8, Iowa; 48 h post infection, compound added at 3 h).
`Fc1cccc(COc2ccc(Nc3ncnc4ccc(-c5cccc(CN6CCOCC6)c5)cc34)cc2Cl)c1` gave an EC50 of 2400 nM (Trypanosoma cruzi; intracellular amastigote growth, β-galactosidase CPRG; 3T3, Tulahuen, β-galactosidase-expressing; 96 h).
`Nc1nc(Nc2ccc(Cl)cc2)nn1S(=O)(=O)c1ccc2ccccc2c1` has an EC50 of > 25000 nM (Zika virus; viral replication; Vero 76, MR766).
With `O=c1c(O)ccccc1O` the EC50 was 1700 nM (Hepatitis B virus; viral replication, inhibitor, qPCR; HepDES19).

Excerpt of the above:
The EC50 of `O=C(CC12CC3CC(CC(C3)C1)C2)NCCOCC(=O)NC1CCN(S(=O)(=O)c2cc(C(=O)Nc3cc(F)c(F)c(F)c3)ccc2F)CC1` is reported as 580 ± 110 nM (Hepatitis B virus; viral replication, item: intracellular HBV DNA; HepG2.2.15; 6 days).
`CCOC(=O)c1cc(O)c(=O)c(O)cc1C` has an EC50 of 4300 nM (Hepatitis B virus; viral replication, inhibitor, qPCR; HepDES19).
For `COCc1cc(O)c(=O)c(O)c(C(=O)OC)c1C(=O)OC`, the EC50 was 15000 nM (Hepatitis B virus; viral replication, inhibitor, qPCR; HepDES19).
`COc1cc(NC(C(=O)N2CCc3ccc(OC(F)(F)F)cc32)c2ccc(Cl)cc2)cc(OCCCC(=O)O)c1` (stereo not drawn) gave an EC50 of > 10000 nM (Zika virus; viral replication; Huh-7.5.1, nanoluciferase reporter; 48 h).
